Published values collected from several papers.
Every numbered part comes from another study and shows a few of its results, in no order. “And” joins repeats or separate records; there may be more than shown.
UniProt Q05512, sequence (whole entry, looked up): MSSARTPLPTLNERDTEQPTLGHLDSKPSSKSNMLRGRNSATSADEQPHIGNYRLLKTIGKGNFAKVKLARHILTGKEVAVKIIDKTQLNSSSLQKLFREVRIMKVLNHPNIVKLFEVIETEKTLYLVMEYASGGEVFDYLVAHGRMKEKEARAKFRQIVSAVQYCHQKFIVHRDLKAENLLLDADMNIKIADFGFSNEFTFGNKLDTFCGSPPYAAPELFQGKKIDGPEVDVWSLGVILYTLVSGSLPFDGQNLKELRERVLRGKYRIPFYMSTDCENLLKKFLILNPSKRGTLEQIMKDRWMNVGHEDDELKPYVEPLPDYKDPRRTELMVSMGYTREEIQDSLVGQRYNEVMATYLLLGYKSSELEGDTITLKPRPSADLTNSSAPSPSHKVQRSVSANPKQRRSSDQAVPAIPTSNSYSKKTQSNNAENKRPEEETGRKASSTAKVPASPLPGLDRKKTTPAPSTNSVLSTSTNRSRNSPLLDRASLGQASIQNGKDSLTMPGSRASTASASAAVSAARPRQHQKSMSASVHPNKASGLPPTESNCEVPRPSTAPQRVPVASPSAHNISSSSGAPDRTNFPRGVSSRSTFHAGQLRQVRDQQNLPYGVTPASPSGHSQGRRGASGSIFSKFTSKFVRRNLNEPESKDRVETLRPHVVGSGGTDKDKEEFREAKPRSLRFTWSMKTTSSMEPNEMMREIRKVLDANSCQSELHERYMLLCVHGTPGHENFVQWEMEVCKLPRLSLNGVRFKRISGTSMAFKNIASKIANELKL
UniProt P30291, sequence (whole entry, looked up): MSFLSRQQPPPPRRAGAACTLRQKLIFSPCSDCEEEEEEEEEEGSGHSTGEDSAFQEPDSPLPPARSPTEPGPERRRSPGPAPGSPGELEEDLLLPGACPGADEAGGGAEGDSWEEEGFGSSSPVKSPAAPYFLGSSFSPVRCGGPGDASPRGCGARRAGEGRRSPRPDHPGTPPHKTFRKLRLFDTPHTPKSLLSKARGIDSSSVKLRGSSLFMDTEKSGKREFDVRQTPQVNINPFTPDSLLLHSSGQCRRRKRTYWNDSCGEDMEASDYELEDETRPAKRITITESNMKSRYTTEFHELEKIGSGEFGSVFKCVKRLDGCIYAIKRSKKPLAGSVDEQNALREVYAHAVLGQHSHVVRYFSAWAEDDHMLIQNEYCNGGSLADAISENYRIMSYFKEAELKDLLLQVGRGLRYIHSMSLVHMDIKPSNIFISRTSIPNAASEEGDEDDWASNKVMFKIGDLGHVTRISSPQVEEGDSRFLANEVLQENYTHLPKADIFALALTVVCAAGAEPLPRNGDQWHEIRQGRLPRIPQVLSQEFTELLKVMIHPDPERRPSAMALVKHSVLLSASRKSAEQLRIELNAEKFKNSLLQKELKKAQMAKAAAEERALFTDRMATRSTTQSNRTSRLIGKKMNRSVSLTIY
UniProt Q14680, sequence (whole entry, looked up): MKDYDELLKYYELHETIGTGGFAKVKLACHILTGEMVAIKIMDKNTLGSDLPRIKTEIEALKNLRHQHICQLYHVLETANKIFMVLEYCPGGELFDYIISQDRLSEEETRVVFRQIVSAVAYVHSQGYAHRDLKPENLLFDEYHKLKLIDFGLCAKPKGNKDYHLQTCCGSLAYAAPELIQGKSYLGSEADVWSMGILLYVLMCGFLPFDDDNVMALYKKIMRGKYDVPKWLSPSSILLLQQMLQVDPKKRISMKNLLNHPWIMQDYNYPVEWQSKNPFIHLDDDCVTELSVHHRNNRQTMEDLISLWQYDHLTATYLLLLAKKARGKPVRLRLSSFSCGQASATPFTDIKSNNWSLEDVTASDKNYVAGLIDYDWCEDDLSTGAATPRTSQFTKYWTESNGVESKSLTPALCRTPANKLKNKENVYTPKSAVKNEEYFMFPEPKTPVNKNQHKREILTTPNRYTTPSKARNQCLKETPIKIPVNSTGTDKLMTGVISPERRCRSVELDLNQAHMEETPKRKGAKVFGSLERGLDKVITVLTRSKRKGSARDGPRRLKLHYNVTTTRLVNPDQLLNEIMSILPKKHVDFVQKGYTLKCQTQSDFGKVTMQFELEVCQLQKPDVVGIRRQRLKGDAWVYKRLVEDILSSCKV
UniProt Q9H2K8, sequence (whole entry, looked up): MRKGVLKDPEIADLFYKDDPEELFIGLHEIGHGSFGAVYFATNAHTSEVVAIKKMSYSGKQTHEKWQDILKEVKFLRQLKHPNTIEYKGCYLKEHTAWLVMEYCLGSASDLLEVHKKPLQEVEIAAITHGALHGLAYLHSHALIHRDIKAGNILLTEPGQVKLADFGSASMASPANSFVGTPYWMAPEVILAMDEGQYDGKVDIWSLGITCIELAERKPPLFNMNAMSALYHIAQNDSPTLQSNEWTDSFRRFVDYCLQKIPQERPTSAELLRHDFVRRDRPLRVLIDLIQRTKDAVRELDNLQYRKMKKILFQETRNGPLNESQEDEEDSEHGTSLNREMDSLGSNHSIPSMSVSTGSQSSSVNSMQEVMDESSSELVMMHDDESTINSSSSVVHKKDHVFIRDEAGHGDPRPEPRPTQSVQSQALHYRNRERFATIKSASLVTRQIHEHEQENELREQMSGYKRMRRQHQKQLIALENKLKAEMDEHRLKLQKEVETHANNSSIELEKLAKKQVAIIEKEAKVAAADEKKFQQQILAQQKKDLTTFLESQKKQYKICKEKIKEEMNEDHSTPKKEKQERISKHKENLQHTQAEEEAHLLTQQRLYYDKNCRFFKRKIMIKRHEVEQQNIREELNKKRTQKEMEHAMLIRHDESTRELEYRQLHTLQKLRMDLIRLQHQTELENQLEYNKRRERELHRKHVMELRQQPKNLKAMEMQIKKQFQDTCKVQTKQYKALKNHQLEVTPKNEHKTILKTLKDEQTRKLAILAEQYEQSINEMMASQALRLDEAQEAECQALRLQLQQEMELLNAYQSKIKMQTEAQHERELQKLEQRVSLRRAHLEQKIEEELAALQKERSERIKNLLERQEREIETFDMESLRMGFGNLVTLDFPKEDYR
UniProt P31751, sequence (whole entry, looked up): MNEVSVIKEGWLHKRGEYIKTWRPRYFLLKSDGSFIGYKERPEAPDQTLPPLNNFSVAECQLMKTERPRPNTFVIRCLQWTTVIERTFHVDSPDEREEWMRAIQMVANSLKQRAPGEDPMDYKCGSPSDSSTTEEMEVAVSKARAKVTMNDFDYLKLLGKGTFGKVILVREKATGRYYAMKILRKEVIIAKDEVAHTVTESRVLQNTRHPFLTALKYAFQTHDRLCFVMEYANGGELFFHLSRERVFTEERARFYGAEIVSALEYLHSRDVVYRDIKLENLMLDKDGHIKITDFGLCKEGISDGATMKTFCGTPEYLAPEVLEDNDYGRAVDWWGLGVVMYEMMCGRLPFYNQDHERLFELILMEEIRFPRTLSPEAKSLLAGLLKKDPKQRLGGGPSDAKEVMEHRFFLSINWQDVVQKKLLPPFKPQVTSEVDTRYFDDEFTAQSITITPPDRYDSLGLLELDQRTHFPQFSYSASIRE
UniProt O95382, sequence (whole entry, looked up): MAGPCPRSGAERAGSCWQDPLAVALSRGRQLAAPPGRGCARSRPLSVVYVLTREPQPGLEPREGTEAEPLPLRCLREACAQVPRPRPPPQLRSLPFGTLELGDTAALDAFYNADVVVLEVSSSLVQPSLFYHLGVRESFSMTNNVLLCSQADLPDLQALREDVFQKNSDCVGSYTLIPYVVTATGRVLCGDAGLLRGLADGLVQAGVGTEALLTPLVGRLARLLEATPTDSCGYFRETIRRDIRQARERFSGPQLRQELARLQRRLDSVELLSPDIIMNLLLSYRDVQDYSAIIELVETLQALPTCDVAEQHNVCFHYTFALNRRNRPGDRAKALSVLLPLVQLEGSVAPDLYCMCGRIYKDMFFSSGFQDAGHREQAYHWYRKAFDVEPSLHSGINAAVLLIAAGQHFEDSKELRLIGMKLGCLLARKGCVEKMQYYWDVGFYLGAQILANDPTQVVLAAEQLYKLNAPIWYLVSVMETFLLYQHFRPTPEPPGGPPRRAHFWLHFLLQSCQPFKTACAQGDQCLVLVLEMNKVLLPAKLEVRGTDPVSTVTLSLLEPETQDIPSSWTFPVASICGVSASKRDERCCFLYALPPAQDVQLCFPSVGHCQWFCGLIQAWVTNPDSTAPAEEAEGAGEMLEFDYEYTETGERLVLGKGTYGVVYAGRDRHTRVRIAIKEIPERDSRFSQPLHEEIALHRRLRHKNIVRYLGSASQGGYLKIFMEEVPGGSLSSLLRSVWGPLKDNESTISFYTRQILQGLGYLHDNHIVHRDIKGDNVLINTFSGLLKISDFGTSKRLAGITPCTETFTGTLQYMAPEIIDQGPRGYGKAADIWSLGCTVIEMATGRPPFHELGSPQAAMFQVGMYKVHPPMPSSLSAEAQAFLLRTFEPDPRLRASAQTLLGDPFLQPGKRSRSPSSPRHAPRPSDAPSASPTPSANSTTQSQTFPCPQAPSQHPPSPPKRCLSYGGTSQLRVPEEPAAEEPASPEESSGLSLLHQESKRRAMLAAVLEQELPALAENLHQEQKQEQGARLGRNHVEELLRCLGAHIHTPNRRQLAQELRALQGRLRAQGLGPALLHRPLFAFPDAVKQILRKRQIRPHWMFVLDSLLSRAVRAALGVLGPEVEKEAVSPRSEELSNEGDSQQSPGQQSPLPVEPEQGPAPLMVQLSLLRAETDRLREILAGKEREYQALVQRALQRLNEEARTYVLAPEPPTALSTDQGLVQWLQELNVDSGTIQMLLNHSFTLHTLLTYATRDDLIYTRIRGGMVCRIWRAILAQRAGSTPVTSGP

Block 1 — technique: phase 2a clinical trial
Compound: CC(C)n1cnc(-c2ccc(F)cc2)c1-c1ncc(C(=O)Nc2ccc(N3CCN(C)CC3)cc2)[nH]1
Host: patients with idiopathic pulmonary fibrosis
Quantity: patients with treatment-emergent adverse events
refers to: hepatic function abnormal; 60 mg once daily, Grade 2: 0%
refers to: electrocardiogram T wave abnormal; 60 mg once daily, Grade 4: 0%
refers to: left ventricular dysfunction; 60 mg once daily, Grade 4: 0%
refers to: gastro-oesophageal reflux disease; 60 mg once daily, Grade 5: 0%
refers to: carbon dioxide decreased; 60 mg once daily, Grade 4: 0%
refers to: first degree atrioventricular block; 30 mg once daily, Grade 5: 0%
refers to: left ventricular dysfunction; 60 mg once daily, Grade 1: 0%

Block 2 — effect on: cell-free assay; technique: competition with immobilised ligand; tested at: 1 µM; quantity: remaining binding
Compound: NS(=O)(=O)c1cc(NC(=O)Cc2ccccc2)ccc1Oc1cccc(Cl)c1
NEK5 (Homo sapiens, UniProt Q6P3R8): 77%
MELK (Homo sapiens, UniProt Q14680): 59%
ERN1 (Homo sapiens, UniProt O75460): 73%
SRC (Homo sapiens, UniProt P12931): 90%
BMP2K (Homo sapiens, UniProt Q9NSY1): 94%
CDK13 (Homo sapiens, UniProt Q14004): 92%
FLT3 (Homo sapiens, UniProt P36888, D835H): 98%
BMPR1B (Homo sapiens, UniProt O00238): 94%
WEE1 (Homo sapiens, UniProt P30291): 75%
TAOK3 (Homo sapiens, UniProt Q9H2K8): 75%
HCK (Homo sapiens, UniProt P08631): 54%
AKT2 (Homo sapiens, UniProt P31751): 100%
FGFR1 (Homo sapiens, UniProt P11362): 100%
CDC42BPB (Homo sapiens, UniProt Q9Y5S2): 100%
EGFR (Homo sapiens, UniProt P00533, del746-750): 58%
MAP3K6 (Homo sapiens, UniProt O95382): 72%

Block 3 — host: human; medium: microsomes or S9; tested at: 2 µM; time: 0.5 h; quantity: remaining compound
Cc1cc(C#N)cc(NC(=O)C(F)(F)F)c1NC(=O)c1cc(Br)nn1-c1ncccc1Cl: 33%
CC(C)c1nn(C)c(Cl)c1CNCc1ccccc1CO: 71.8%
CCC(CC)C1CC(NC(=O)Nc2c(C)ccn(C)c2=O)CCO1 (centres unmarked): 77%
COc1ccccc1Nc1ccc(-n2ccnc2-c2ccncc2)cc1: 72.6%
COc1ccc(-c2cc(=O)c3c(O)c(OC)c(OC)c(OC)c3o2)cc1OC: 38.5%

Block 4 — quantity: inhibition
SMILES: COc1cc(C(=O)N2CCC(N3CCN(C)CC3)CC2)ccc1Nc1ncc2c(n1)N(C)c1ccccc1C(=O)N2C
STLK5 (mouse); probe labelling, inhibitor, KiNativ ActivX ATP probe; mouse brain lysate; 0.1 µM, activation loop peptide: -1.9%
Serine/threonine-protein kinase MARK2 (Mark2, Mus musculus, UniProt Q05512); KiNativ profiling; mouse brain lysate; 1 µM, LYS1 site, together with: ADP acyl phosphate probe: -4.4%
Receptor tyrosine-protein kinase erbB-4 (Erbb4, Mus musculus, UniProt Q61527); probe labelling, KiNativ, refers to: activation loop peptide; brain tissue lysate (mouse); 1 µM, together with: ATP acyl-phosphate probe: -9.3%
RSK1 domain 2 (mouse); probe labelling, inhibitor, KiNativ ActivX ADP probe; mouse brain lysate; 0.1 µM, Lys1 site peptide: 10.9%

Other studies, line by line
CC[C@@H](C)c1nc2cc(Nc3ccnc4ccc(S(=O)(=O)C(C)C)cc34)ccc2s1 — EC50 (L929; TNF-α-induced necroptosis, inhibitor, CCK-8; together with: TNF-α, zVAD): 3.9 µM and 6.91 µM and 3.67 µM
COC(=O)c1cc(Cl)ccc1N(C)C(=O)c1ccn2ncc(-c3ccc(C(N)=O)cc3)c2c1 — plasma concentration (C57BL/6 IFN-γ knockout mouse, female, plasma; oral, 10 mg/kg, 1 h): 24 nM
CC(=O)N[C@@H](Cc1c[nH]c2ccccc12)C(=O)N[C@@H](CCC(=O)C=[N+]=[N-])C(=O)OC(C)C — normalized intensity (refers to: malate; mouse, EL4 tumour; dose not given): -0.103 and 0.101 and 0.00026 and -0.0067 and -0.125 and -0.176

Excerpt of the above (block 1):
refers to: left ventricular dysfunction; 60 mg once daily, Grade 4: 0%
refers to: electrocardiogram T wave abnormal; 60 mg once daily, Grade 4: 0%
refers to: gastro-oesophageal reflux disease; 60 mg once daily, Grade 5: 0%
refers to: first degree atrioventricular block; 30 mg once daily, Grade 5: 0%
refers to: carbon dioxide decreased; 60 mg once daily, Grade 4: 0%
